Assay results of several laboratories.
Each line is one published result; not all experiments were run side by side. Numbers after ± are the reported error.

Under “ATP level reduction”, `O=C(Nc1c[nH]nc1-c1nc2cc(CN3CCOCC3)ccc2[nH]1)NC1CC1` is recorded as 10% (ARPE-19 HiBiT-fibulin-3 knock-in; cell viability, CellTiter-Glo; 1.66 µM, 48 h; baseline: vehicle).
For `Cc1cc(C)nc(NC(=S)N2CCN(Cc3ccc(C(F)(F)F)cc3)CC2)c1`, the CC50 was over 20 µM (human cells).
The viability of `C[C@@H]1O[C@@H](OC[C@H]2O[C@@H](Oc3c(-c4ccc(O)c(O)c4)oc4cc(O)cc(O)c4c3=O)[C@H](O)[C@@H](O)[C@@H]2O)[C@H](O)[C@H](O)[C@H]1O` is reported as 110% (Caco-2; CCK-8; 5 µM, 24 h).
`COC(=O)c1ccc(NC(=O)c2sc3nc(C)cc(C)c3c2N)cc1` has a viability of 85 ± 7% (MDA-MB-231; MTT; 100 µM, 72 h).
`O=C(O)C(F)(F)C(F)(F)C(F)(F)C(F)(F)C(F)(F)C(F)(F)C(F)(F)F`: “passive diffusion clearance” 0.302 µL/s/mg protein (Caco-2 cells).
With `O=NN1CC2CC(C1)c1cc3nccnc3cc12` the relative survival was 81.7% (TK6 expressing CYP3A4; 25 µM, 4 h, without S9; baseline: vehicle).
The cytotoxicity of `O=C(/C=C/c1ccc(O)c(O)c1/C=C/c1ccc(O)c(O)c1)O[C@H](Cc1ccc(O)c(O)c1)C(=O)O` is reported as 0% (Vero E6; 50 µM).
`O=c1[nH]c2ccccc2s1` has an IC10 of 982 µM (HEK293H PPARγ-UAS-bla; cytotoxicity; freely dissolved concentration).
Under “ATP level reduction”, `CN1CCN(c2ccc3nc(-c4c(N)c5c(F)cccc5[nH]c4=O)[nH]c3c2)CC1` is recorded as -5.14% (ARPE-19 HiBiT-fibulin-3 knock-in; cell viability, CellTiter-Glo; 1.66 µM, 48 h; baseline: vehicle).
With `CC(C)C[C@@H](NC(=O)[C@H](C)NC(=O)CNC(=O)[C@@H](NC=O)C(C)C)C(=O)N[C@@H](C)C(=O)N[C@@H](C(=O)N[C@H](C(=O)N[C@@H](C(=O)N[C@@H](Cc1c[nH]c2ccccc12)C(=O)N[C@H](CC(C)C)C(=O)N[C@@H](Cc1ccc2cc[nH]c2c1)C(=O)N[C@H](CC(C)C)C(=O)N[C@@H](Cc1c[nH]c2ccccc12)C(=O)N[C@H](CC(C)C)C(=O)N[C@@H](Cc1c[nH]c2ccccc12)C(=O)NCCO)C(C)C)C(C)C)C(C)C` the IC50 was 0.00367 ± 0.00189 µM (P388 (mouse); cytotoxicity, WST-1; 92 h).
`Cc1cccc(NC(=O)CSc2nc(-c3ccccc3)cc(C)c2C#N)n1` has a viability of 34 ± 3% (MDA-MB-231; MTT; 100 µM, 72 h).
For `CC(C)C[C@@H]1C(=O)N[C@@H](Cc2ccccc2)C(=O)N2CCC[C@H]2C(=O)N[C@@H]([C@@H](C)O)C(=O)N[C@@H](C(C)C)C(=O)N[C@H]([C@H](C)O)C(=O)N[C@@H](Cc2ccccc2)C(=O)N[C@@H](CCC(N)=O)C(=O)N[C@H](C(=O)O)CSSC[C@H](N)C(=O)N1C`, “Papp A to B” read 0.16 ×10⁻⁶ cm/s (MDCK-MDR1; HBSS, 0.25% BSA; 2 h).
The concentration of `O=C(Nc1cnccc1Cl)N1CCN(Cc2ccc3c(c2)OC(F)(F)O3)CC1` is reported as 105 ± 3.9 nM (COS cells expressing human FAAH; COS cell culture supernatant; 100 nM, 3 h).
With `CC(C)=CCc1c(O)ccc(C(=O)/C=C/c2ccc(O)cc2)c1O` the cytotoxicity was 0% (Vero E6; 100 µM).
`C/C=C(/C)C(=O)O[C@H]1C(C)=C2[C@H]([C@@H]1OC(=O)CCCCCCC)[C@@](C)(OC(C)=O)C[C@H](OC(=O)CCC)[C@@]1(O)[C@H]2OC(=O)[C@@]1(C)O`: “maximum lethal concentration” over 10 µM (MDA-MB-231; toxic above this concentration).
`CC(C)C[C@@H]1NC(=O)[C@H](CCC(=O)O)NC(=O)[C@H]2CCCN2C(=O)[C@@H](N)CSSC[C@@H](C(=O)O)NC(=O)[C@@H]2CCCN2C(=O)[C@H](Cc2ccccc2)NC(=O)[C@H](CC(C)C)N(C)C(=O)[C@H]([C@@H](C)O)NC(=O)[C@H](C(C)C)NC1=O`: “Papp A to B” 0.16 ×10⁻⁶ cm/s (MDCK-MDR1; HBSS, 0.25% BSA; 2 h).
The viability of `COc1cc(CNC(=O)CSc2nc(C)cc(C)c2C#N)cc(OC)c1OC` is reported as 48 ± 6% (MDA-MB-231; MTT; 100 µM, 72 h).
Under “early apoptotic cells”, `CC(c1ccccc1)(c1ccc(O)cc1)c1ccc(O)cc1` is recorded as 19.1 ± 2.8% (HepG2 spheroids, dissociated; annexin V-FITC/PI flow cytometry; 1 µM, 24 h).
For `COc1ncc(F)cc1CNc1ccc(Cc2c[nH]c3ncc(C)cc23)c(F)n1`, the CC50 was over 20 µM (human cells).
Under “Papp A to B”, `CC(C)C[C@H]1C(=O)N[C@@H]([C@@H](C)O)C(=O)N[C@@H](CO)C(=O)N[C@@H](C)C(=O)N[C@H]([C@H](C)O)C(=O)N2CCC[C@H]2C(=O)N(C)[C@@H](CC(C)C)C(=O)N[C@H](Cc2ccc(O)cc2)C(=O)N[C@H](Cc2ccccc2)C(=O)N[C@H](C(C)C)C(=O)NCC(=O)N1C` is recorded as 0.08 ×10⁻⁶ cm/s (MDCK-MDR1; HBSS, 0.25% BSA; 2 h).
For `CCOC(=O)c1ccc(NC(=O)c2sc3nc(-c4ccccc4)cc(C(F)(F)F)c3c2N)cc1`, the viability was 15 ± 3% (MDA-MB-231; MTT; 100 µM, 72 h).
With `O=c1ccc2ccccc2o1` the chance response was 0.05% (NHEK; cell membrane permeability; concentration not given, 24 h, apoptosis, necrosis panel).
`CCc1ccc(Sc2cc(C(=O)NCCCN3CCC(C)CC3)c3ccccc3n2)cc1` has an AC50 of 14.1 µM (Vero E6; cytotoxicity, CellTiter-Glo; retest 8-point, no virus).
`COC(=O)c1ccc(NC(=O)CSc2nc(-c3ccccc3)cc(C(F)(F)F)c2C#N)cc1` has a viability of 17 ± 1% (MDA-MB-231; MTT; 100 µM, 72 h).
`CC[C@H](C)[C@H]1C(=O)N[C@@H](Cc2ccc(O)cc2)C(=O)N2CCC[C@H]2C(=O)N[C@H]([C@H](C)O)C(=O)N[C@@H](CC(C)C)C(=O)N[C@@H](C(C)C)C(=O)N[C@@H](C)C(=O)N[C@@H](C)C(=O)N[C@@H](CO)C(=O)N[C@@H](CCC(=O)O)C(=O)N[C@H](CC(=O)O)C(=O)N[C@H](C(=O)O)CSSC[C@H](N)C(=O)N1C` — result for “Papp A to B”: 1.73 ×10⁻⁶ cm/s (MDCK-MDR1; HBSS, 0.25% BSA; 2 h).
For `O=S(=O)(c1ccc(O)cc1)c1ccc(O)cc1`, “early apoptotic cells” read 10.6 ± 1.91% (HepG2 spheroids, dissociated; annexin V-FITC/PI flow cytometry; 0.1 µM, 24 h).
`CC[C@H](C)[C@H]1C(=O)N[C@@H]([C@@H](C)O)C(=O)N[C@@H](C)C(=O)N[C@@H](Cc2ccccc2)C(=O)N[C@@H](CC(C)C)C(=O)NCC(=O)N[C@@H](CC(C)C)C(=O)N2CCC[C@@H]2C(=O)N[C@H](Cc2ccc(O)cc2)C(=O)N2CCC[C@H]2C(=O)NCC(=O)N[C@@H](CCCNC(=N)N)C(=O)N1C`: “Papp A to B” 0.07 ×10⁻⁶ cm/s (MDCK-MDR1; HBSS, 0.25% BSA; 2 h).
The concentration of `CN(C(=O)n1cnc(-c2ccc[n+]([O-])c2)c1)C1CCCCC1` is reported as 101 ± 1.1 nM (COS cells expressing human FAAH; COS cell culture supernatant; 100 nM, 24 h).
For `Oc1ccc(C(c2ccc(O)cc2)(C(F)(F)F)C(F)(F)F)cc1`, the viable cells was 68.9 ± 9.47% (HepG2 spheroids, dissociated; annexin V-FITC/PI flow cytometry; 1 µM, 24 h).
`O=C(Nc1cccnn1)N1CCC(=Cc2cccc(Oc3ccc(C(F)(F)F)cn3)c2)CC1` has a supernatant concentration of 78 ± 3 nM (COS cells expressing human FAAH; 100 nM, 0 h).
With `CCOC(=O)c1ccc(NC(=O)CCSc2nc(C)cc(C)c2C#N)cc1` the viability was 51 ± 4% (MDA-MB-231; MTT; 100 µM, 72 h).
`COc1ccc(C[C@@H]2c3cc(Oc4cc(C[C@@H]5c6cc(O)c(OC)cc6CCN5C)ccc4O)c(OC)cc3CCN2C)cc1` has a cytotoxicity of 0% (Vero E6; 50 µM).
`N#Cc1c(C(F)(F)F)cc(-c2ccccc2)nc1SCC(=O)Nc1ccccc1` has a viability of 52 ± 8% (MDA-MB-231; MTT; 100 µM, 72 h).
For `CCCCCCCCCCCCOS(=O)(=O)[O-].[Na+]`, cytotoxicity read “not toxic” (HCE; MTT; up to 50 µM).
`Oc1ccc(C2(c3ccc(O)cc3)c3ccccc3-c3ccccc32)cc1` has a viable cells of 19% (HepG2 spheroids, dissociated; annexin V-FITC/PI flow cytometry; 10 µM, 96 h).
With `O=C(Nc1cccnn1)N1CCC(=Cc2cccc(Oc3ccc(C(F)(F)F)cn3)c2)CC1` the concentration was 72.6 ± 4.4 nM (COS cells expressing human FAAH; COS cell culture supernatant; 100 nM, 1 h).
The induction Emax of `COc1ccc(C(C)(C)c2cnc(SCCOc3ccc(-n4ccnc4)cc3)n2-c2ccc(F)cc2)cc1OC` is reported as 7.69 fold (sandwich-cultured human hepatocytes; gene induction, inducer, item: CYP3A4 mRNA; 48 h; baseline: vehicle).
With `CC(=O)O[C@H]1C[C@H](O[C@H]2[C@@H](O)C[C@H](O[C@H]3[C@@H](O)C[C@H](O[C@H]4CC[C@@]5(C)[C@H](CC[C@@H]6[C@@H]5C[C@@H](O)[C@]5(C)[C@@H](C7=CC(=O)OC7)CC[C@]65O)C4)O[C@@H]3C)O[C@@H]2C)O[C@H](C)[C@H]1O[C@@H]1O[C@H](CO)[C@@H](O)[C@H](O)[C@H]1O` the CC50 was over 60 µM (primary human fibroblasts uninfected; live/dead staining; 48 h).
The viability of `O=c1cc(-c2ccc(O)cc2)oc2c([C@@H]3O[C@H](CO)[C@@H](O)[C@H](O)[C@H]3O)c(O)cc(O)c12` is reported as 125% (Caco-2; CCK-8; 0.625 µM, 24 h).
`CC(C)[C@H]1C(=O)N[C@@H](CCCN=C(N)N)C(=O)NCC(=O)N[C@@H](CC(=O)O)C(=O)N[C@H](Cc2ccccc2)C(=O)N1C`: “Papp B to A” 0.102 ×10⁻⁶ cm/s (Caco-2; 200 µM).
The viability of `Cc1cc(-c2ccccc2)nc2sc(C(=O)NCc3ccccc3)c(N)c12` is reported as 49 ± 2% (MDA-MB-231; MTT; 100 µM, 72 h).
For `FC(F)(F)c1ccc(CNc2ccc(Cc3c[nH]c4ncc(Cl)cc34)cn2)cn1`, the CC50 was 18.2 µM (human cells).
With `C=C[C@@](C)(/C=C/c1ccc(O)cc1)CCC=C(C)C` the cytotoxicity was 0% (Vero E6; 50 µM).
With `O=C(Nc1cnccc1Cl)N1CCN(Cc2ccc3c(c2)OC(F)(F)O3)CC1` the supernatant concentration was 90.1 ± 2.7 nM (COS cells expressing human FAAH; 100 nM, 1 h).
`CC(C)(c1ccc(O)cc1)c1ccc(O)cc1`: “late apoptotic cells” 13.6 ± 4.39% (HepG2 spheroids; annexin V-FITC/PI flow cytometry; 10 µM, 24 h).
The cytotoxicity of `O=C(O[C@@H]1Cc2c(O)cc(O)cc2O[C@@H]1c1cc(O)c(O)c(O)c1)c1cc(O)c(O)c(O)c1` is reported as 100% (Vero E6; 100 µM).
`CC(C)CC(=O)OC[C@H]1O[C@@](C#N)(c2ccc3c(N)ncnn23)[C@H](O)[C@@H]1O` has a recovery of 99.5% (Caco-2; bidirectional permeability; 0.9 µM, 120 min; basolateral to apical).

For quick reference, copied from above:
`Oc1ccc(C2(c3ccc(O)cc3)c3ccccc3-c3ccccc32)cc1` has a viable cells of 19% (HepG2 spheroids, dissociated; annexin V-FITC/PI flow cytometry; 10 µM, 96 h).
With `O=C(Nc1cccnn1)N1CCC(=Cc2cccc(Oc3ccc(C(F)(F)F)cn3)c2)CC1` the concentration was 72.6 ± 4.4 nM (COS cells expressing human FAAH; COS cell culture supernatant; 100 nM, 1 h).
The induction Emax of `COc1ccc(C(C)(C)c2cnc(SCCOc3ccc(-n4ccnc4)cc3)n2-c2ccc(F)cc2)cc1OC` is reported as 7.69 fold (sandwich-cultured human hepatocytes; gene induction, inducer, item: CYP3A4 mRNA; 48 h; baseline: vehicle).
With `CC(=O)O[C@H]1C[C@H](O[C@H]2[C@@H](O)C[C@H](O[C@H]3[C@@H](O)C[C@H](O[C@H]4CC[C@@]5(C)[C@H](CC[C@@H]6[C@@H]5C[C@@H](O)[C@]5(C)[C@@H](C7=CC(=O)OC7)CC[C@]65O)C4)O[C@@H]3C)O[C@@H]2C)O[C@H](C)[C@H]1O[C@@H]1O[C@H](CO)[C@@H](O)[C@H](O)[C@H]1O` the CC50 was over 60 µM (primary human fibroblasts uninfected; live/dead staining; 48 h).
The viability of `O=c1cc(-c2ccc(O)cc2)oc2c([C@@H]3O[C@H](CO)[C@@H](O)[C@H](O)[C@H]3O)c(O)cc(O)c12` is reported as 125% (Caco-2; CCK-8; 0.625 µM, 24 h).
`CC(C)[C@H]1C(=O)N[C@@H](CCCN=C(N)N)C(=O)NCC(=O)N[C@@H](CC(=O)O)C(=O)N[C@H](Cc2ccccc2)C(=O)N1C`: “Papp B to A” 0.102 ×10⁻⁶ cm/s (Caco-2; 200 µM).
